{"data": "Assay results collected from several papers", "OPRM1": "Mu-type opioid receptor (OPRM1, Homo sapiens, UniProt P35372)", "USP16 ZnF-UBD domain": "Ubiquitin carboxyl-terminal hydrolase 16, ZnF-UBD domain (USP16, Homo sapiens, UniProt Q9Y5T5)", "Kir3.1/Kir3.4": "Kir3.1/Kir3.4 (Homo sapiens, UniProt P48544+P48549)", "CLPP": "ATP-dependent Clp protease proteolytic subunit, mitochondrial (CLPP, Homo sapiens, UniProt Q16740)", "note": "Lines come from different studies, so protocols differ. ± gives the spread as reported."}
{"SMILES": "C[C@H]1C[C@@H](N2C(=N)N[C@](C)(c3cccc(Nc4ccc(C5CC5)nc4)c3Cl)CC2=O)CCO1", "target or system": "OPRM1", "assay": "functional response, agonist", "system": "cells", "endpoint": "EC50", "result": "7.3 µM"}
{"SMILES": "O=C(O)CCc1nccs1", "target or system": "USP16 ZnF-UBD domain", "endpoint": "Kd", "result": "331 µM"}
{"SMILES": "Cn1cc(-c2ccc(-c3cncc(Cl)c3N3CCC4(CCNC4=O)CC3)cc2)cn1", "target or system": "COLO 205", "assay": "gene expression, microarray, item: PLK4 mRNA", "setting": "concentration not given, 6 h", "how to read": "relative to: untreated cells", "endpoint": "log2 fold change", "result": -2.63}
{"SMILES": "Cc1c(-c2ccc(N3CCc4cccc(C(=O)Nc5nc6ccccc6s5)c4C3)nc2C(=O)O)cnn1CC12CC3(C)CC(C)(C1)CC(OCCNCC[C@H](O)CO)(C3)C2", "system": "beagle dog, male, anaesthetised", "setting": "intravenous infusion, 0.3 mg/kg/min, 60 (unit not given)", "how to read": "relative to: vehicle", "endpoint": "heart rate change", "result": "-7%"}
{"SMILES": "Cn1cc2c(C(=O)O)ccc(NS(=O)(=O)c3ccc(OCC4CCC4)c(Cl)c3)c2n1", "target or system": "OPRM1", "assay": "antagonist", "endpoint": "EC50", "result": "> 10 µM"}
{"SMILES": "NCCCNCCCCNCCCN", "target or system": "MFS-type transporter SLC18B1 (SLC18B1, Homo sapiens, UniProt Q6NT16, D140A)", "assay": "binder", "endpoint": "Kd", "result": "146 µM"}
{"SMILES": "COc1cc(Nc2ncc3c(n2)-c2ccc(Cl)cc2C(c2c(F)cccc2OC)=NC3)ccc1C(=O)NCCOCCOCCNC(=O)COc1cccc2c1C(=O)N(C1CCC(=O)NC1=O)C2=O (stereo not shown)", "target or system": "DnaJ homolog subfamily A member 1 (DNAJA1, Homo sapiens, UniProt P31689)", "assay": "binding, kinobead competition", "system": "MV4-11 cell lysate", "endpoint": "EC50", "result": "> 30 µM"}
{"SMILES": "O=C(COc1cccc(Cl)c1Cl)Nc1cc(C2CC2)nn1C1CCC(F)(F)CC1", "target or system": "Kir3.1/Kir3.4", "assay": "activator, thallium flux", "system": "HEK293", "endpoint": "EC50", "result": "1.04 µM"}
{"SMILES": "C[C@@H]1CC2=C(CN1Cc1cccc(C#N)c1)C(=O)N(Cc1ccc(Br)c(F)c1)C1=NCCN12", "target or system": "CLPP", "assay": "peptidase activity, activator", "setting": "with: Ac-WLA-AMC", "endpoint": "EC50", "result": "0.0357 ± 0.003 µM"}
{"SMILES": "CN1CCN2c3ccccc3Cc3ccccc3C2C1 (stereo not shown)", "target or system": "5-hydroxytryptamine receptor 1D (HTR1D, Homo sapiens, UniProt P28221)", "assay": "agonist", "endpoint": "EC50", "result": "0.372 µM"}
{"SMILES": "Cc1cc(Br)ccc1CN1C(=O)C2=C(C[C@@H](C)N(Cc3cccc(C#N)c3)C2)N2CCN=C12", "target or system": "CLPP", "assay": "peptidase activity, activator", "setting": "with: Ac-WLA-AMC", "endpoint": "EC50", "result": "0.1036 ± 0.0003 µM"}
{"SMILES": "O=C(COc1cccc(Cl)c1Cl)Nc1cc(C2CCC2)nn1C1CCOCC1", "target or system": "Kir3.1/Kir3.4", "assay": "activator", "endpoint": "EC50", "result": "10 µM"}
{"SMILES": "O=C1Nc2c(ccc(Cl)c2Cl)C1=NO", "target or system": "KCNN4/CALM1 (Homo sapiens, UniProt O15554+P0DP23, R287A)", "assay": "ion current, activator, whole-cell patch clamp", "setting": "R287A mutant", "endpoint": "EC50", "result": "0.098 µM"}
{"SMILES": "O=C(COc1ccc(Cl)cc1Cl)Nc1cc(C2CCC2)nn1C1CCOCC1", "target or system": "Kir3.1/Kir3.4", "assay": "activator, thallium flux", "system": "HEK293", "endpoint": "EC50", "result": "10 µM"}
{"SMILES": "CCn1c(-c2nc3ccc(C(=O)N4CCCC(N)C4)cc3n2C)cc2ccccc21 (stereo not shown)", "target or system": "OPRM1", "assay": "agonist, GTPγS binding", "endpoint": "EC50", "result": "> 100 µM"}
{"SMILES": "COc1ccc(C=C2SC(=O)N(C(C)C(=O)O)C2=O)cc1 (stereo not shown)", "target or system": "USP16 ZnF-UBD domain", "endpoint": "Kd", "result": "116 µM"}
{"SMILES": "CCC(C)N(C)C(=O)c1cc2ccccc2c(-c2ccccc2Cl)n1 (stereo not shown)", "target or system": "Nuclear receptor subfamily 1 group I member 2 (NR1I2, Homo sapiens, UniProt O75469)", "assay": "agonist", "setting": "120 min, pH 7.5", "endpoint": "EC50", "result": "1.64 µM"}
{"SMILES": "CCNC(=O)N1CCN(c2nc(NC3CCN(C(=O)[C@@H](CCc4ccc(OC)cc4)NC(=O)[C@@H]4CCCCN4C(=O)C(=O)C(C)(C)CC)CC3)nc(N(Cc3cnn(C)c3)C3CC3)n2)CC1", "target or system": "FKBP1A/BRD9 (Homo sapiens, UniProt P62942+Q9H8M2)", "assay": "FKBP12 recruitment, NanoBiT", "system": "HEK-293T", "setting": "2 h, full-length BRD9", "endpoint": "EC50", "result": "> 5 µM"}
{"SMILES": "COc1cc2c(cc1OC)[C@H]1C[C@@H](O)[C@H](CC(C)C)CN1CC2", "target or system": "MFS-type transporter SLC18B1 (SLC18B1, Homo sapiens, UniProt Q6NT16)", "assay": "binding, radioligand binding", "endpoint": "Kd", "result": "6.53 µM"}
{"SMILES": "CCc1nccnc1CC", "target or system": "uncharacterized protein (Puma concolor, UniProt A0A6P6H1F7)", "assay": "cAMP, agonist", "system": "HEK293 transfected with uncharacterized protein", "endpoint": "EC50", "result": "> 1500 µM"}
{"SMILES": "CCc1cc(NC(=O)COc2ccc(C(F)(F)F)cc2C(F)(F)F)n(CC(F)(F)F)n1", "target or system": "Kir3.1/Kir3.4", "assay": "activator, thallium flux", "system": "HEK293", "endpoint": "EC50", "result": "1.6 µM"}
{"SMILES": "CC(C)C[C@H](NC(=O)C[C@H](O)[C@H](CC(C)C)NC(=O)[C@H](Cc1c[nH]cn1)NC(=O)CNC(=O)[C@@H](NC(=O)[C@H](C)NC(=O)[C@H](Cc1c[nH]c2ccccc12)NC(=O)[C@H](CCC(N)=O)NC(=O)[C@@H](Cc1ccccc1)NC(=O)COCCOCCNC(=O)CCC(C(=O)O)N1CCN(CC(=O)O)CCN(CC(=O)O)CCN(CC(=O)O)CC1)C(C)C)C(N)=O (stereo partly shown) [lutetium-177 labelled]", "system": "female BALB/c nu/nu mice, pancreas", "setting": "intravenous, 100 pmol, 4 h, with: PA 300 µg", "endpoint": "tissue uptake", "result": "0.5 ± 0.06 %ID/g"}
{"note": "For quick reference, copied from above:"}
{"SMILES": "O=C1Nc2c(ccc(Cl)c2Cl)C1=NO", "target or system": "KCNN4/CALM1 (Homo sapiens, UniProt O15554+P0DP23, R287A)", "assay": "ion current, activator, whole-cell patch clamp", "setting": "R287A mutant", "endpoint": "EC50", "result": "0.098 µM"}
{"SMILES": "O=C(COc1ccc(Cl)cc1Cl)Nc1cc(C2CCC2)nn1C1CCOCC1", "target or system": "Kir3.1/Kir3.4", "assay": "activator, thallium flux", "system": "HEK293", "endpoint": "EC50", "result": "10 µM"}
{"SMILES": "CCn1c(-c2nc3ccc(C(=O)N4CCCC(N)C4)cc3n2C)cc2ccccc21 (stereo not shown)", "target or system": "OPRM1", "assay": "agonist, GTPγS binding", "endpoint": "EC50", "result": "> 100 µM"}
{"SMILES": "COc1ccc(C=C2SC(=O)N(C(C)C(=O)O)C2=O)cc1 (stereo not shown)", "target or system": "USP16 ZnF-UBD domain", "endpoint": "Kd", "result": "116 µM"}
